Results pooled from the literature.
Numbered parts are unrelated; each lists some results of a single study.

Block 1
Read-out: peptide binding
Form: peptide
Matrix: yeast competitive growth
Together with: B1-Cln2 chimera
Reading: direction not given
The enrichment score of `RRRRLLFWDKETQI` is reported as -0.729.
`IPDRSTKPVVFSPT` gave an enrichment score of 0.686.
`HRRRLLFACSPPPASQ` gave an enrichment score of 0.00174.
The enrichment score of `VKTKKRLNFDDK` is reported as -0.178.

Block 2
Target: Ras GTPase-activating protein-binding protein 1, RRM domain (G3BP1, Homo sapiens, UniProt Q13283)
Sequence of UniProt Q13283 (whole entry, looked up): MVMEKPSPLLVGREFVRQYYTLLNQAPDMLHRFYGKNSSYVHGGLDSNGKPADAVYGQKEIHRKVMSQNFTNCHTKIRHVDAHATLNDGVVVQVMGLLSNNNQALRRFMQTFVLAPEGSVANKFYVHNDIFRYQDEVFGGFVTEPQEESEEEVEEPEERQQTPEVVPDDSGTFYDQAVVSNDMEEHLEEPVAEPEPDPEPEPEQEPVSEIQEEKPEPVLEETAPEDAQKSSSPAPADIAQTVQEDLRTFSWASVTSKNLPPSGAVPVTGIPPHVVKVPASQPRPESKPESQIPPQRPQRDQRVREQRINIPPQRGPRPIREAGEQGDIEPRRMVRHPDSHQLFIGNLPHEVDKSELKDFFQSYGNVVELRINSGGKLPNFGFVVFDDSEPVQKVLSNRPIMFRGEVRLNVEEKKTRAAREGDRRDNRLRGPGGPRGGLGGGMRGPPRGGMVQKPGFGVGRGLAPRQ
Method: RNA Bind-n-Seq
Form: RNA
Matrix: in vitro
Tested at: 1 µM
Notes: whole 134-nt RNA, ends assumed
Together with: 150 mM KCl
Baseline: input library
Reading: higher = stronger binding
The log2 enrichment of `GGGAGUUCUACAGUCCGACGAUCCAAGUCCUGUGCUACACAUCGUAUGUACCGAAUCGGAAAGGUUUUUGGAAAAAGGAAAGUAUUAUGUUACGCCGUUCGGAUCUGCACUUCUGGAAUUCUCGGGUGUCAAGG` is reported as -0.261.
`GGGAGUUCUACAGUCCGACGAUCCACAGACAACACGCACCCACAAAGACACAGAGGGAAGGGGUUGGGAUGGGGACAGGGUGCACAGCAGGGCGGGGUAGGACCCCAGCCCCUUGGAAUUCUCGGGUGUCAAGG` has a log2 enrichment of -0.21.
For `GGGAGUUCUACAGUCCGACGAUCUCAAUGCCGGCUAUGCCCUGGCCCCAGCCACCAGUGCCAACGACAGCGAGCAGCAGAGCCUGUCCAGCGAUGCAGACACCCUGUCCCUCAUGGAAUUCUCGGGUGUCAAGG`, the log2 enrichment was -0.122.
`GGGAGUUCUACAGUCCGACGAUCUCAAGUCCUGUGCUACACAUCGUAUGUACCGAAUCGGGUUGGGUUGGGGUUGGGGAAAGUAUUAUGUUACGCCGUUCGGAUCUGCACUUCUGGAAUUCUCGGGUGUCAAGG` has a log2 enrichment of 1.09.
The log2 enrichment of `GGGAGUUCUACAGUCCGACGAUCCAAGUCCUGUGCUACACAUCGUAUGUACCGAAUCGGGAAAGGGAAAGGGAAAGGGAAAGUAUUAUGUUACGCCGUUCGGAUCUGCACUUCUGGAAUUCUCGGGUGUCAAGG` is reported as 0.589.
`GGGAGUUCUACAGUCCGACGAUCACCAUGCAGGUGGGCAUCUUUGGGAAGUGGGGCAAGGGGGGGAUAGGGAGGGGGGUAACACUUUGGGAACAGGUGGUCCCAGGUCGUUUAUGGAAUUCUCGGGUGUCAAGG` gave a log2 enrichment of 0.99.
`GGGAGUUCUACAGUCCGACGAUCAAGUCCUGUGCUACACAUCGUAUGUACCGAAUCGGGAAAAAGGGUUUUUGGGUGGGAAAGUAUUAUGUUACGCCGUUCGGAUCUGCACUUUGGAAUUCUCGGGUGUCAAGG` gave a log2 enrichment of 0.773.
The log2 enrichment of `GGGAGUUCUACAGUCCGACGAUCUGGCCCUGGUGGCAUGCGGAGAGGAAGAGGUGGCCUCAUGGAUCGUGGUGGUCCCGGUGGAAUGUUCAGAGGUGGCCGUGGUGGAGACAGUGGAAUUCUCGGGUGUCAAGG` is reported as 0.94.
`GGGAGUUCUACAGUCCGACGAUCAAGUCCUGUGCUACACAUCGUAUGUACCGAAUCGGGUUUUGGGUUUUGGUUUUGGGGAAAGUAUUAUGUUACGCCGUUCGGAUCUGCACUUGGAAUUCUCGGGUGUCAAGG` gave a log2 enrichment of 0.012.
`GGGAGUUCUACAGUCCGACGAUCUCAAGUCCUGUGCUACACAUCGUAUGUACCGAAUCGGAAAGGAAAGGAAAAAGGAAAGUAUUAUGUUACGCCGUUCGGAUCUGCACUUCCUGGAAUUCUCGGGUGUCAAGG` has a log2 enrichment of -0.119.
`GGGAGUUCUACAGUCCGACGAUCCACAGACAACACGCACCCACACAGACACAGAGGGAAGGCGUUGGGAUGGGGACAGGGUGCACAGCAGGGCGGGGUAGGACCCCAGCCCCUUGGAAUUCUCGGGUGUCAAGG` gave a log2 enrichment of -0.181.
`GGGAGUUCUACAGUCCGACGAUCCAAGUCCUGUGCUACACAUCGUAUGUACCGAAUCGGUGGAAAAAGGUUUUUUUGGAAAGUAUUAUGUUACGCCGUUCGGAUCUGCACUUCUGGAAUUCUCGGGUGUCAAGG` has a log2 enrichment of -0.253.
With `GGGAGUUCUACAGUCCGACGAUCCAAGUCCUGUGCUACACAUCGUAUGUACCGAAUCGGUUUGGGGUUUGGUUUGGGGAAAGUAUUAUGUUACGCCGUUCGGAUCUGCACUUCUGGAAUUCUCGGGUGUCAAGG` the log2 enrichment was -0.275.
For `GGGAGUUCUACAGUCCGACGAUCUGGCCCUGGUGGCAUGCGGGGAGGAAGAGGUGGCCUCAUGGAUCGUGGUGGUCCCGGUGGAAUGUCCAGAGGUGGCCGUGGUGGAGACAGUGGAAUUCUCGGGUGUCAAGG`, the log2 enrichment was 0.823.

Block 3
Target: Interferon regulatory factor 5, full length, phosphomimetic (IRF5, Homo sapiens, UniProt Q13568-2, residues 1-514, K96S/S451D/S453D/S456D/S462D)
Method: protein-binding microarray
Form: double-stranded DNA, one strand shown
Matrix: in vitro
Tested at: 250 nM
Notes: 60-bp whole probe
Together with: salmon DNA 0.4 mg/ml
Baseline: random background probes
Reading: higher = stronger binding
All sequences stand within: GCCTAGCAC … GTCTTGATTCGCTTGACGCTGCTG
The log fluorescence of `ACTAGATAAGACAAAGTGATGTGCTAG` is reported as 0.188 z-score.
`TTAGGTCTCCTACTGCTGTAGTGCTAG` has a log fluorescence of -0.682 z-score.
For `TTAGGTTTCGGTTTCTGTTAGTGCTAG`, the log fluorescence was 10.8 z-score.
`GACGGTATCGGACGGGGGACGTGCTAG` gave a log fluorescence of 1.62 z-score.
`TTAGGTTTCGGTATCGGTTAGTGCTAG` gave a log fluorescence of 10.8 z-score.
The log fluorescence of `TTAGATTTCGGGTATAGATTAGTGCTA` is reported as 5.81 z-score.
For `GACGGTTACGGGACTGGGGACGTGCTA`, the log fluorescence was -0.222 z-score.
`GTAGGTCTCCTTCTCCTTTAGTGCTAG` has a log fluorescence of -0.282 z-score.
`TTAGGTTTCGGTTTCGCTTAGTGCTAG` has a log fluorescence of 10.6 z-score.
For `GACGTACTGAGACTGGAGACGTGCTAG`, the log fluorescence was -0.465 z-score.
With `GACGGTCTCGGGTTTCGGGACGTGCTA` the log fluorescence was 1.71 z-score.
For `TTAGGTATCGACTATCGGTTGGTGCTA`, the log fluorescence was 7.49 z-score.
For `GCCGATCTCAGTATCGAGACGTGCTAG`, the log fluorescence was 1.87 z-score.
For `TTAGGTTTCCTTATCCTTTCGTGCTAG`, the log fluorescence was 1.59 z-score.
For `TTAGGTTTCCTACTACTTTAGTGCTAG`, the log fluorescence was 0.655 z-score.

Further values, each from its own experiment
`PhoQ, residues 284 288 289 292 302 303 TVTVVA` has a fold induction of 10.7 (PhoP, residues 12 14 15 18 19 SYFRT (Escherichia coli, UniProt P23836); Sort-seq, refers to: YFP reporter; E. coli; PhoQ-PhoP variant library, together with: 10 µM Mg2+; baseline: high Mg2+ state, higher = stronger signaling).
